Results collected from several papers.
Compare with care: the assays were run in different laboratories. ± marks the error that the study gave.
CHRM1: Muscarinic acetylcholine receptor M1 (CHRM1, Homo sapiens, UniProt P11229)
Chain of UniProt P11229 (whole entry, looked up): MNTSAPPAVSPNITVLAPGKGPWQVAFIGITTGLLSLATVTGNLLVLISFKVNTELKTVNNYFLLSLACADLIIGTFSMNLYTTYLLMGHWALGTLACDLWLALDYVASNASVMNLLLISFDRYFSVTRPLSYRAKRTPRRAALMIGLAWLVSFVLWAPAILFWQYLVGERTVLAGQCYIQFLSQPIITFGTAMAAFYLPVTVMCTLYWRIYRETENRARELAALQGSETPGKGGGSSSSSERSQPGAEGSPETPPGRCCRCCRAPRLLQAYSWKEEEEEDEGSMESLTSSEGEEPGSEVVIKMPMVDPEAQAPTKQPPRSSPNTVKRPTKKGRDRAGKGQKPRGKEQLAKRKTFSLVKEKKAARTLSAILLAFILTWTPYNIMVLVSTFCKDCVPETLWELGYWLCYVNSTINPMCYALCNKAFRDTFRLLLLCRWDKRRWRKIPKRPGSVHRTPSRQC
Chain of UniProt P54750 (whole entry, looked up): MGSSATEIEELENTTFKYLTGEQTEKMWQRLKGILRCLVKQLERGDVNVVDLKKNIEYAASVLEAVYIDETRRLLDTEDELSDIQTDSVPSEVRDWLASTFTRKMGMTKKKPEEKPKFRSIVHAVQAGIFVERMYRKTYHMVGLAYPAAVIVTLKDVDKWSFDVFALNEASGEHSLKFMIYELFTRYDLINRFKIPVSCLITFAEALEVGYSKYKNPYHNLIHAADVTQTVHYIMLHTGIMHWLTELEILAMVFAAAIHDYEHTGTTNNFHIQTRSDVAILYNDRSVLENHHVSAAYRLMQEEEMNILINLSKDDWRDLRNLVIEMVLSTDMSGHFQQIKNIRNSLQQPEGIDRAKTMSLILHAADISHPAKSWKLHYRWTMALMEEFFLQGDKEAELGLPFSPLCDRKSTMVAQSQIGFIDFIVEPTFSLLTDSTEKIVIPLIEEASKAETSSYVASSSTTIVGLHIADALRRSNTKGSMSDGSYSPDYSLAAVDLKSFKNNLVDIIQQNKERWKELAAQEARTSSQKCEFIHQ
Chain of UniProt P51582 (whole entry, looked up): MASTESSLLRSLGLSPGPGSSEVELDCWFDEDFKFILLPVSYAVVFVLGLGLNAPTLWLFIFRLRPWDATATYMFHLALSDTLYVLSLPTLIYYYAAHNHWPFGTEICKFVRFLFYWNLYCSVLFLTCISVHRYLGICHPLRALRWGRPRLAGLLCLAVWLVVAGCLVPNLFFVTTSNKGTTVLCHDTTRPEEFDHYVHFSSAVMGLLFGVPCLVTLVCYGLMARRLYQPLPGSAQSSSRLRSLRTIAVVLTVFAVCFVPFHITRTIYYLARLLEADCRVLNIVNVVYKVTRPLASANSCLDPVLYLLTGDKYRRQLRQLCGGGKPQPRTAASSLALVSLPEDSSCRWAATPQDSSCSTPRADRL
Chain of UniProt P9WG57 (whole entry, looked up): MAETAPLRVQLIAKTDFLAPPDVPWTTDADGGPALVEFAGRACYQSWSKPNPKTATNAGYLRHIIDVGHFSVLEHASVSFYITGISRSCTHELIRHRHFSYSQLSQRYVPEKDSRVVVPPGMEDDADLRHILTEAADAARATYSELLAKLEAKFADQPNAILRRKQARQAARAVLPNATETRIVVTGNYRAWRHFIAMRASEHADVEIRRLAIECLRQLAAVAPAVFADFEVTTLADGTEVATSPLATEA
Chain of UniProt P50391 (whole entry, looked up): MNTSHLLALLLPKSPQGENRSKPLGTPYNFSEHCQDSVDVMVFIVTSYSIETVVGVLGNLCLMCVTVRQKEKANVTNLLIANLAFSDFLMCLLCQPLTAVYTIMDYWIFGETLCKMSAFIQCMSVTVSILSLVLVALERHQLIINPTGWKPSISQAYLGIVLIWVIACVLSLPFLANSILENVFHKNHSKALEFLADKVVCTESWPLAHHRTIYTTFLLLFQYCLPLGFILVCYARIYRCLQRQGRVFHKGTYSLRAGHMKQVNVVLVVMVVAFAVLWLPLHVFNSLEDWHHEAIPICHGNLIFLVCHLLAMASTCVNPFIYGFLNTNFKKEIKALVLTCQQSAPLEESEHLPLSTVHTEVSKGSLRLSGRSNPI
Chain of UniProt P12369 (whole entry, unmodified, looked up): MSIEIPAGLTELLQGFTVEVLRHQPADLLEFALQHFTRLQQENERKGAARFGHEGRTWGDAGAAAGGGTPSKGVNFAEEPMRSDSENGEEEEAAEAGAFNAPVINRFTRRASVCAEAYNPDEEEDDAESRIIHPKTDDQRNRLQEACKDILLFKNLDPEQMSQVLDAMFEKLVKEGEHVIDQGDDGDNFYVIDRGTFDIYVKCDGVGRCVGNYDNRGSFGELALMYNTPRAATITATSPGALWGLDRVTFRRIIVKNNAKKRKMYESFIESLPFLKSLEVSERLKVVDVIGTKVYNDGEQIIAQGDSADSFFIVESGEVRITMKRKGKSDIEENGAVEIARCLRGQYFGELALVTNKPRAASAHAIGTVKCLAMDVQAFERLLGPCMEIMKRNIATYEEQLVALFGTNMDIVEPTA
Chain of UniProt Q9Y5Y9 (whole entry, looked up): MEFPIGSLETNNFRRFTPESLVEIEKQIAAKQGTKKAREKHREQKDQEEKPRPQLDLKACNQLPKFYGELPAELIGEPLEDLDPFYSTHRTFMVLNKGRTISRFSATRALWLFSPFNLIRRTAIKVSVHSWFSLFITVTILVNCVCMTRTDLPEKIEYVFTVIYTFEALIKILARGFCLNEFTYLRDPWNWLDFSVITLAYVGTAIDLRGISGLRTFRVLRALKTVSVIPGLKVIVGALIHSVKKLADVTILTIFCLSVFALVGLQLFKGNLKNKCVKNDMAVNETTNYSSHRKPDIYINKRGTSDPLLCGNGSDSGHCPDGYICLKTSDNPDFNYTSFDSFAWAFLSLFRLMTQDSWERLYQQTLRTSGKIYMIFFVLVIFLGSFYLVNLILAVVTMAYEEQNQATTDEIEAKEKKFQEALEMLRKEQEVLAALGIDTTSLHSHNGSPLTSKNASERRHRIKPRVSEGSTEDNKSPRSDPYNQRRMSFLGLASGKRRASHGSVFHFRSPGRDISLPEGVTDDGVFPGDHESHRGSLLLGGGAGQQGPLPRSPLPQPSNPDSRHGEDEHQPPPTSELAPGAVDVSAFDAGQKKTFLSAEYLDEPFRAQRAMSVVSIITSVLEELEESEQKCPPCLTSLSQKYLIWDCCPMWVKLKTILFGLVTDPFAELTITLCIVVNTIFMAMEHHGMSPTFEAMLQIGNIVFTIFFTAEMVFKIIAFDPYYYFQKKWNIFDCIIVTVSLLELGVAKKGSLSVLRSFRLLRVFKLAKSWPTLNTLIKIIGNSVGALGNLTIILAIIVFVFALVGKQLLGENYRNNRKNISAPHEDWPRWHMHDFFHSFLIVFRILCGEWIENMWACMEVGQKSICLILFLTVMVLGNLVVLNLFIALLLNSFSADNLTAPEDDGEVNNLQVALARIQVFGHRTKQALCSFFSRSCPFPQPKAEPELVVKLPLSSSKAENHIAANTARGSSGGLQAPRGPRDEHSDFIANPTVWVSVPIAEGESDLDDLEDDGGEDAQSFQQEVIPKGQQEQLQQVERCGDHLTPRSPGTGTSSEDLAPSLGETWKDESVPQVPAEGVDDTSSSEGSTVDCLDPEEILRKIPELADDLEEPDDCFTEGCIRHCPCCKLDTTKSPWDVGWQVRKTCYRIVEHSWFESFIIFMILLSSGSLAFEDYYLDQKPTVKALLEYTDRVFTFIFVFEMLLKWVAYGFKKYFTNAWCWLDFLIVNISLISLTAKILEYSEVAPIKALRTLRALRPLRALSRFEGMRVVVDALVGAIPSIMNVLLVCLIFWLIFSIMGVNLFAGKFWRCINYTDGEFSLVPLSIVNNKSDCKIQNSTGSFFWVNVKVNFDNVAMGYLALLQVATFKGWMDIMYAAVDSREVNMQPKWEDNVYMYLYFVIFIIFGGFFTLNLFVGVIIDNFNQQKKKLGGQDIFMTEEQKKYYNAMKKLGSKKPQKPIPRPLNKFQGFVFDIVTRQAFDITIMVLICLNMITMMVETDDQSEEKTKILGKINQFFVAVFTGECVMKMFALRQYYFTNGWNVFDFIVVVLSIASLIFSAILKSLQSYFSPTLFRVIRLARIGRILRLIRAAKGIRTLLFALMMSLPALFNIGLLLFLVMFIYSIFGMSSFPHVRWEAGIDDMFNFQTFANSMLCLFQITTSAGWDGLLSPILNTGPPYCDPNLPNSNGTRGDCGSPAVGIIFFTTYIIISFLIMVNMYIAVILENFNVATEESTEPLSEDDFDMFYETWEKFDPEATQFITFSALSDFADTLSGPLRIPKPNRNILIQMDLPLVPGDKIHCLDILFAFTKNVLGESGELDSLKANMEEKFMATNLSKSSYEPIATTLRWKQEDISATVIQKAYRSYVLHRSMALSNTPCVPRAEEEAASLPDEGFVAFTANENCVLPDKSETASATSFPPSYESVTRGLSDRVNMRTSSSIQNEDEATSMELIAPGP
Chain of UniProt P11588 (whole entry, looked up): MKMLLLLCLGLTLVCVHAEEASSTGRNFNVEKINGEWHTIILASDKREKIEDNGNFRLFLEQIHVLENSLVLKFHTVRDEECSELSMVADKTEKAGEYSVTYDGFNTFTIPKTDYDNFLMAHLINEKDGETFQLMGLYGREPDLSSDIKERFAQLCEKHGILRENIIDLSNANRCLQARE
Chain of UniProt P08173 (whole entry, looked up): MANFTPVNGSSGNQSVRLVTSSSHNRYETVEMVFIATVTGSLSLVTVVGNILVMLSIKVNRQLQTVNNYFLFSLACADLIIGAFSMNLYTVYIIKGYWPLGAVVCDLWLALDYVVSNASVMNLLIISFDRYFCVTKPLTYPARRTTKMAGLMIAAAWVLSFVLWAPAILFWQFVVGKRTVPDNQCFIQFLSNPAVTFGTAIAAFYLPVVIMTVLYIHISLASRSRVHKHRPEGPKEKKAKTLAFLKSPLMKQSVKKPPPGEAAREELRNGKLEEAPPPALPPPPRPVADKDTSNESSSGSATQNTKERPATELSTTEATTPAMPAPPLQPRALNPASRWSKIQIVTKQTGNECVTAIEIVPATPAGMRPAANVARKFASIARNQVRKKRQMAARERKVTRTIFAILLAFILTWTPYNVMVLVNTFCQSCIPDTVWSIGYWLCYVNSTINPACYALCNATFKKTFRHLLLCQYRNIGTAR

Molecule	target or system	assay	system	setting	scale	endpoint	value
Clc1cccc(Nc2nnc(-c3ccccc3)c3ccccc23)c1	PDE1A (Homo sapiens, UniProt P54750)	cGMP hydrolysis, inhibitor, fluorescence polarization	recombinant enzyme	up to 100 µM, 30 min preincubation, 30 °C, added: TAMRA-cGMP 25 nM	–	IC50	inactive
O=C1C=C(O)C(=O)c2ccccc21	thyX (Mycobacterium tuberculosis, UniProt P9WG57)	oxidase activity, activator	–	aerobic, no CH2H4folate, added: 200 µM NADPH	–	activation constant	9 ± 4 µM
CCCN(Cc1ccccc1)C(=O)c1cc(C)c(C)s1	ATP2A2 (Sus scrofa, UniProt P11607)	enzyme activity, NADH-coupled	porcine cardiac SR vesicles	up to 50 µM	–	Ca2+-ATPase activity	inactive
CC(C)(C)OC(=O)n1c(-c2ccccc2)cc2ccccc21	RAW264.7	sulforhodamine B	–	50 µM, 20 h	relative to: vehicle	viability	27.6 ± 2.4%
CCCCCCCCCCCCCCCC(=O)N[C@@H](CCC(=O)NCCCC[C@H](NC(=O)[C@H](C)NC(=O)[C@H](Cc1ccc(O)cc1)NC(=O)[C@H](CCC(N)=O)NC(=O)[C@H](C)NC(=O)[C@H](CCSC)NC(=O)[C@H](CCC(N)=O)NC(=O)[C@H](CCC(=O)O)NC(=O)[C@@H]1CCCN1C(=O)[C@@H](NC(=O)[C@H](C)NC(=O)[C@H](CC(N)=O)NC(=O)[C@H](CC(=O)O)NC(=O)CNC(=O)[C@@H]1CCCN1C(=O)[C@H](Cc1ccc(O)cc1)NC(=O)[C@@H](NC(=O)[C@@H]1CCCN1C(=O)[C@H](CCC(=O)O)NC(=O)[C@H](CC(C)C)NC(=O)[C@@H]1CCCN1C(=O)[C@H](C)NC(=O)c1ccc2c(c1)C(=O)OC21c2ccc(O)cc2Oc2cc(O)ccc21)C(C)C)[C@@H](C)O)C(=O)N[C@@H](CC(=O)O)C(=O)N[C@@H](CC(C)C)C(=O)N[C@@H](CCCNC(=N)N)C(=O)N[C@@H](CCCNC(=N)N)C(=O)N[C@@H](Cc1ccc(O)cc1)C(=O)N[C@H](C(=O)N[C@@H](CC(N)=O)C(=O)N[C@@H](CCSC)C(=O)N[C@@H](CC(C)C)C(=O)N[C@H](C(=O)N[C@@H](CCCNC(=N)N)C(=O)N1CCC[C@H]1C(=O)N[C@@H](CCCNC(=N)N)C(=O)N[C@@H](Cc1ccc(O)cc1)C(N)=O)[C@@H](C)O)[C@@H](C)CC)C(=O)O	NPY4R (Homo sapiens, UniProt P50391)	radioligand displacement	COS-7 transiently expressing	1 µM, 90 min, room temperature, added: [3H]-hPP 1 nM	relative to: total binding	specific binding	84%
Cn1cc(-c2ccc(COc3ccccc3-c3cc(=O)n(C4CCCCC4O)cn3)cn2)cn1 (stereo not drawn)	CHRM1	positive allosteric modulator, IP1 accumulation	CHO-M1 cells	1 µM, 60 min, 37 °C, added: ACh	relative to: ACh alone, higher = stronger potentiation	ΔpEC50 of ACh	1.51 ± 0.15 log units
CC(C)[C@H](NC(=O)[C@@H]1CCCN1C(=O)[C@H](CCCNC(=N)N)NC(=O)[C@H](CS)NC(=O)[C@H](Cc1c[nH]c2ccccc12)NC(=O)[C@H](CCCNC(=N)N)NC(=O)[C@@H](Cc1ccccc1)NC(=O)[C@H](Cc1c[nH]cn1)NC(=O)[C@H](CCC(=O)O)NC(=O)[C@H](CS)NC(=O)[C@H](CS)NC(=O)[C@H](CCCCN)NC(=O)[C@@H]1CC(=O)N[C@@H](CCCNC(=N)N)C(=O)N[C@@H](C)C(=O)N[C@@H](CC(=O)O)C(=O)N[C@H](Cc2ccc(O)cc2)C(=O)N1)C(N)=O [technetium-99m labelled]	–	–	C57 mice, bladder	iv, 0.037 MBq, 4 h	–	tissue uptake	65.7 ± 4.62 %ID
NCCCCCCNc1nc2c(N)ncnc2n1[C@@H]1O[C@@H]2COP(=O)(O)O[C@H]2[C@H]1O	cAMP-dependent protein kinase type II-beta regulatory subunit, holoenzyme with catalytic subunit (Prkar2b, Rattus norvegicus, UniProt P12369, S112A)	PKA holoenzyme activation, activator, fluorescence anisotropy	–	–	relative to: RIIβ over RIα, higher = RIIβ-selective	selectivity ratio	0.6
CCN(CC)C(=O)c1ccc(COc2ccccc2-c2cc(=O)n(C3CCCCC3O)cn2)cc1 (stereo not drawn)	CHRM1	allosteric agonist, IP1 accumulation	CHO-M1 cells	1 µM, unit not given	relative to: maximum ACh response	change in baseline activity	9.2 ± 3
O=c1ccn([C@@H]2O[C@H](CP(=O)(O)OP(=O)(O)O)[C@@H](O)[C@H]2O)c(=O)[nH]1	P2Y purinoceptor 4 (P2RY4, Homo sapiens, UniProt P51582)	phospholipase C stimulation, agonist	1321-N1 astrocytoma cells	10 µM	–	EC50	inactive
CC(C)(C)OC(=O)Nc1ccc(COc2ccccc2-c2cc(=O)n(C3CCCCC3O)cn2)cc1 (stereo not drawn)	CHRM1	allosteric agonist, IP1 accumulation	CHO-M1 cells	10 µM, unit not given	relative to: maximum ACh response	change in baseline activity	77.8 ± 2.9
Cn1c(=O)c2[nH]c(SCc3ccccc3)nc2n(C)c1=O	PGR (Homo sapiens, UniProt P06401)	reporter gene, antagonist, MMTV-luciferase	T47D/A1-2	10 µM, 24 h, added: 5 nM progesterone	relative to: maximal activity	remaining activity	77%
CCC(C)n1ncn(-c2ccc(N3CCN(c4ccc(OCC5COC(Cn6cncn6)(c6ccc(Cl)cc6Cl)O5)cc4)CC3)cc2)c1=O (stereo not drawn)	–	enzyme activity, inhibitor	rat kidney homogenate	10 µM, added: 50 nM corticosterone	relative to: rat over human enzyme	potency ratio	≥ 10 fold
CIKVAVS	human polyclonal IgM rheumatoid factor	binding to mAb II-481	peptide	combined CDR peptides, serum CLAU	–	maximum inhibition	0%
CCCCCCO	Major urinary protein 1 (Mup1, Mus musculus, UniProt P11588)	isothermal titration calorimetry	–	concentration not given, pH 7.4, 278-308 K	–	binding heat capacity change	-553 ± 15 J/(K·mol)
CC[C@@H]([C@H](C)O)n1ncn(-c2ccc(N3CCN(c4ccc(OC[C@@H]5CO[C@@](Cn6cncn6)(c6ccc(F)cc6F)C5)cc4)CC3)cc2)c1=O	–	enzyme activity, inhibitor	mouse kidney homogenate	10 µM, added: 50 nM corticosterone	relative to: mouse over human enzyme	potency ratio	~4 fold
c1cncc(-c2cc3ccccc3[nH]2)c1	RAW264.7	sulforhodamine B	–	50 µM, 20 h	relative to: vehicle	viability	107 ± 7%
COc1ccc(C)c2sc(NS(=O)(=O)c3ccc(C(F)(F)F)cc3)nc12	CHRM4 (Homo sapiens, UniProt P08173)	calcium mobilization, positive allosteric modulator	CHO expressing hM4 and Gqi5	concentration not given, added: acetylcholine EC20	–	activity	inactive
Cn1c[n+]([C@@H]2O[C@H](COP(=O)(O)OP(=O)([O-])OP(=O)(O)OC[C@H]3O[C@@H](n4cnc5c(=O)[nH]c(N)nc54)[C@H](O)[C@@H]3O)[C@@H](O)[C@H]2O)c2nc(N)[nH]c(=O)c21	–	capped luciferase mRNA	rabbit reticulocyte lysate	1 h	relative to: compound-capped mRNA	relative translation efficiency	1 ± 0.02
COC(=O)c1scc(C)c1NC(=O)C(C)N1CCS(=O)(=O)CC1 (stereo not drawn)	SCN10A (Homo sapiens, UniProt Q9Y5Y9)	cell membrane chromatography	–	–	higher = stronger binding	capacity factor k′	0.4
NC(=O)c1ccc(COc2ccccc2-c2cc(=O)n(C3CCCCC3O)cn2)cc1 (stereo not drawn)	CHRM1	positive allosteric modulator, IP1 accumulation	CHO-M1 cells	1 µM, 60 min, 37 °C, added: ACh	relative to: ACh alone, higher = stronger potentiation	ΔpEC50 of ACh	1.71 ± 0.15 log units

Some of these lines once more:
Molecule	target or system	assay	system	setting	scale	endpoint	value
Clc1cccc(Nc2nnc(-c3ccccc3)c3ccccc23)c1	PDE1A (Homo sapiens, UniProt P54750)	cGMP hydrolysis, inhibitor, fluorescence polarization	recombinant enzyme	up to 100 µM, 30 min preincubation, 30 °C, added: TAMRA-cGMP 25 nM	–	IC50	inactive
O=C1C=C(O)C(=O)c2ccccc21	thyX (Mycobacterium tuberculosis, UniProt P9WG57)	oxidase activity, activator	–	aerobic, no CH2H4folate, added: 200 µM NADPH	–	activation constant	9 ± 4 µM
CCCN(Cc1ccccc1)C(=O)c1cc(C)c(C)s1	ATP2A2 (Sus scrofa, UniProt P11607)	enzyme activity, NADH-coupled	porcine cardiac SR vesicles	up to 50 µM	–	Ca2+-ATPase activity	inactive
